Experimental data collected from several papers.
Protocols differ between the studies behind these lines. ± marks the error that the study gave.

Protein sequences, listed by entry. Tags and fused reporters are not part of them. Residues count along the entry.
UniProt P26045, 646-901 limits assumed: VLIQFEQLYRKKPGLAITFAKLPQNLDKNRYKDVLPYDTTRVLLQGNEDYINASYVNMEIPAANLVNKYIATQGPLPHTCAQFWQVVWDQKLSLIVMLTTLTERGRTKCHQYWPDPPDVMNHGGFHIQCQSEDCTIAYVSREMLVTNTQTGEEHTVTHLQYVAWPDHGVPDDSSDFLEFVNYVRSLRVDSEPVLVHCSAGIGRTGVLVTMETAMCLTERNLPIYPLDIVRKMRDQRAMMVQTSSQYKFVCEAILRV
UniProt Q9Y6W6, 321-464 limits assumed: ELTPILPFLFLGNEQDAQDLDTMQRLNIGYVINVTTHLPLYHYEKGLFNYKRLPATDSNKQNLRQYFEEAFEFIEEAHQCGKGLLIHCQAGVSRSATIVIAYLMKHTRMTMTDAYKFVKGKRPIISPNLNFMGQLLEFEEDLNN
UniProt P08183, whole entry: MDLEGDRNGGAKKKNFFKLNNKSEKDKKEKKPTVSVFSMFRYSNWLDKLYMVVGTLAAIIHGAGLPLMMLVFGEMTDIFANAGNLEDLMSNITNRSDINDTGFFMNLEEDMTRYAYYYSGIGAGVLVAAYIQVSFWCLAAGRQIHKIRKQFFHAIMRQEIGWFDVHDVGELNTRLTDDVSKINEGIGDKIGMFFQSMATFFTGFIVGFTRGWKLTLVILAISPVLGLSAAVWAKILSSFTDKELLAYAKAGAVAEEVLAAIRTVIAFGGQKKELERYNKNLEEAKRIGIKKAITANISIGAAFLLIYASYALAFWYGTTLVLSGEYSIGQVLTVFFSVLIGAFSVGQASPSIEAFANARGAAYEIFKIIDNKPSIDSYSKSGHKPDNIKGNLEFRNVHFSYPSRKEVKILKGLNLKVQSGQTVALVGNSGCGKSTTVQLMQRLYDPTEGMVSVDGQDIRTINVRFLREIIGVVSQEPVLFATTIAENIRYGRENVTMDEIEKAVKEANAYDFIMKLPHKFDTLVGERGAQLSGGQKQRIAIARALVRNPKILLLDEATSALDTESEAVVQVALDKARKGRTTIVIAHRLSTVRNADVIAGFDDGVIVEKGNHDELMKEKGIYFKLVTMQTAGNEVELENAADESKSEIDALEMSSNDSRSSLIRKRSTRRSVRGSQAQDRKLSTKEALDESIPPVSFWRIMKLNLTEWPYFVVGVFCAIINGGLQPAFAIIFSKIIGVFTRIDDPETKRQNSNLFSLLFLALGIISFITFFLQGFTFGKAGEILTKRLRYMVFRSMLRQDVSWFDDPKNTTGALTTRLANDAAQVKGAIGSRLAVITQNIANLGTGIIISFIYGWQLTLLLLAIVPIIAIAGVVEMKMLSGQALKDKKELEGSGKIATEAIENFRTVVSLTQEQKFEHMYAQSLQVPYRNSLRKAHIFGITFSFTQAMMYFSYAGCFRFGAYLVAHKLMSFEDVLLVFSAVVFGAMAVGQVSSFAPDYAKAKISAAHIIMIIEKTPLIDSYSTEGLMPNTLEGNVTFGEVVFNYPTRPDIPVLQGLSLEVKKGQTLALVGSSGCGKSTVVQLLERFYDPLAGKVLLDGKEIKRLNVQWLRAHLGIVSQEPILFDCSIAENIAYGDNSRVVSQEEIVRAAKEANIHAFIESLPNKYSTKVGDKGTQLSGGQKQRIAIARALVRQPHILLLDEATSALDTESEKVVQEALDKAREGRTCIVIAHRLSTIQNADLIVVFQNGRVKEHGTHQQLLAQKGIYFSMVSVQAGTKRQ

| Compound | target or system | assay | system | setting | endpoint | value |
| --- | --- | --- | --- | --- | --- | --- |
| Cc1cc(SCc2sc(-c3ccc(C(=O)N4CCN(C)CC4)cc3)nc2C)ccc1OCC(=O)O | HEK293T |  |  | 18 h | CC50 | not toxic |
| CC[C@H](C)[C@H](NC(=O)[C@H](C)NC(=O)[C@H](CCC(=O)O)NC(=O)[C@H](CCC(=O)O)NC(=O)[C@H](CC(C)C)NC(=O)[C@H](CCCCN)NC(=O)[C@H](CCCCN)NC(=O)[C@H](CCSC)NC(=O)[C@H](CCC(=O)O)NC(=O)[C@H](Cc1ccc(O)cc1)NC(=O)[C@H](CCC(=O)O)NC(=O)[C@H](CC(C)C)NC(=O)[C@H](CC(=O)O)NC(=O)[C@H](CC(C)C)NC(=O)[C@H](Cc1ccccc1)NC(=O)[C@H](Cc1ccc(O)cc1)NC(=O)[C@@H](NC(=O)[C@H](CC(N)=O)NC(=O)[C@@H](NC(=O)[C@H](CCC(N)=O)NC(=O)[C@H](CC(=O)O)NC(=O)[C@H](CC(C)C)NC(=O)[C@@H](N)CO)[C@@H](C)CC)C(C)C)C(=O)N[C@@H](CCCCN)C(=O)N[C@@H](CCCCN)C(=O)N[C@@H](CC(C)C)C(=O)N[C@@H](CCC(=O)O)C(=O)N[C@@H](CCC(=O)O)C(=O)N[C@@H](C)C(=O)N[C@@H](Cc1ccc(O)cc1)C(=O)N[C@H](C(=O)N[C@@H](CC(=O)O)C(=O)N[C@@H](CC(C)C)C(=O)N[C@@H](CCCCN)C(=O)N[C@@H](CCC(=O)O)C(=O)N[C@@H](CC(C)C)C(=O)O)[C@@H](C)CC | SARS-CoV-2 Beta pseudovirus | pseudovirus infection, inhibitor, luciferase | Caco-2 | 24 h, dual mutations | IC50 | 534 nM |
| CC(=O)N[C@@H](Cc1c[nH]cn1)C(=O)N[C@@H](CC(=O)O)C(=O)NCC(=O)N[C@@H](CC(C)C)C(=O)N[C@@H](Cc1ccc(OP(=O)(O)O)cc1)C(=O)N[C@@H](CCC(N)=O)C(=O)NCC(=O)N[C@@H](CC(C)C)C(=O)N[C@@H](CO)C(=O)N[C@H](C(=O)N[C@@H](C)C(=O)N[C@H](C(=O)N[C@@H](CCCCN)C(=O)N[C@@H](CC(=O)O)C(=O)N[C@H](C(=O)N[C@@H](Cc1cc(=O)oc2cc(OP(=O)(O)O)ccc12)C(=O)N[C@@H](CC(=O)O)C(=O)N[C@@H](C)C(=O)N[C@@H](CC(C)C)C(=O)N[C@@H](Cc1c[nH]cn1)C(N)=O)[C@@H](C)O)[C@@H](C)O)[C@@H](C)O | PTPN3 (Homo sapiens, UniProt P26045) | peptide hydrolysis, substrate |  | pH 6.0, 37 °C, TCR zeta-chain ITAM peptide | Km | 19.1 µM |
| Cc1cncc(-c2ccc(N[C@@H]3CCNC[C@H]3OCC3CCS(=O)(=O)CC3)c3[nH]c(=O)c(C)cc23)c1 |  | chromatographic |  | pH 7.4 | logD | 2.1 |
| O=C(NC1CCN(c2ncnc3[nH]cnc23)CC1)c1cccc(S(=O)(=O)Nc2ccc(Cl)cc2)c1 | SARS-CoV-2 | viral replication | Wuhan-Hu-1 |  | EC50 | 1400 nM |
| CO[C@@H]1CNC[C@H](OCC2CCC(F)(F)CC2)[C@H]1Nc1ncc(-c2cncc(C)c2)c2cc(C)c(=O)[nH]c12 |  | chromatographic |  | pH 7.4 | logD | 3.1 |
| CC(=O)N[C@@H](Cc1c[nH]cn1)C(=O)N[C@H](C(=O)NCC(=O)N[C@@H](Cc1ccccc1)C(=O)N[C@@H](CC(C)C)C(=O)N[C@H](C(=O)N[C@@H](CCC(=O)O)C(=O)N[C@@H](Cc1cc(=O)oc2cc(OP(=O)(O)O)ccc12)C(=O)N[C@H](C(=O)N[C@@H](C)C(=O)N[C@H](C(=O)N[C@@H](CCCNC(=N)N)C(=O)N[C@@H](Cc1c[nH]c2ccccc12)C(N)=O)[C@@H](C)O)C(C)C)[C@@H](C)OP(=O)(O)O)[C@@H](C)O | Dual specificity protein phosphatase 10 (Homo sapiens, UniProt Q9Y6W6) | peptide hydrolysis, substrate |  | pH 6.0, 37 °C, 50 nM enzyme, added: ERK activation-loop peptide | Km | 25.8 µM |
| CC[C@H](C)[C@H](NC(=O)[C@H](C)NC(=O)[C@H](CCC(=O)O)NC(=O)[C@H](CCC(=O)O)NC(=O)[C@H](CC(C)C)NC(=O)[C@H](CCCCN)NC(=O)[C@H](CCCCN)NC(=O)[C@H](CCSC)NC(=O)[C@H](CCC(=O)O)NC(=O)[C@H](Cc1ccc(O)cc1)NC(=O)[C@H](CCC(=O)O)NC(=O)[C@H](CC(C)C)NC(=O)[C@H](CC(=O)O)NC(=O)[C@H](CC(C)C)NC(=O)[C@H](Cc1ccccc1)NC(=O)[C@H](Cc1ccccc1)NC(=O)[C@@H](NC(=O)[C@H](CC(N)=O)NC(=O)[C@@H](NC(=O)[C@H](CCC(N)=O)NC(=O)[C@H](CC(=O)O)NC(=O)[C@H](CC(C)C)NC(=O)[C@@H](N)CO)[C@@H](C)CC)C(C)C)C(=O)N[C@@H](CCCCN)C(=O)N[C@@H](CCCCN)C(=O)N[C@@H](CC(C)C)C(=O)N[C@@H](CCC(=O)O)C(=O)N[C@@H](CCC(=O)O)C(=O)N[C@@H](CO)C(=O)N[C@@H](Cc1ccc(O)cc1)C(=O)N[C@H](C(=O)N[C@@H](CC(=O)O)C(=O)N[C@@H](CC(C)C)C(=O)N[C@@H](CCCCN)C(=O)N[C@@H](CCC(=O)O)C(=O)N[C@@H](CC(C)C)C(=O)O)[C@@H](C)CC | SARS-CoV-2 Alpha pseudovirus | pseudovirus infection, inhibitor, luciferase | Caco-2 | 24 h | IC50 | 294 nM |
| CN(C)c1ccc2c(-c3ccc(C(=O)O)s3)c3ccc(=[N+](C)C)cc-3sc2c1 | ABCB1 (Homo sapiens, UniProt P08183) | ATPase activity, substrate |  | half-maximal ATPase stimulation | Km | 140 ± 11 µM |

Some of these lines once more:
| Compound | target or system | assay | system | setting | endpoint | value |
| --- | --- | --- | --- | --- | --- | --- |
| Cc1cc(SCc2sc(-c3ccc(C(=O)N4CCN(C)CC4)cc3)nc2C)ccc1OCC(=O)O | HEK293T |  |  | 18 h | CC50 | not toxic |
